Literature values as cited in several papers.
± marks the error that the study gave. Values after ≈ are worked out from the molar mass of the structure shown.
ACHE: Acetylcholinesterase (ACHE, Homo sapiens, UniProt P22303)
BCHE: Cholinesterase (BCHE, Homo sapiens, UniProt P06276)

Structure (SMILES)	tested on	test	system	setting	measurement	result
O=C(Cn1cc(CN2C(=O)C(=O)c3cc(F)ccc32)nn1)NCc1ccccc1Cl	ACHE	–	–	–	Ki	155 nM
C=CCN1C[C@H](C)N([C@@H](c2cccc(O)c2)c2cccc(C(=O)N(C)c3cccc(F)c3)c2)C[C@H]1C	rat kappa opioid receptor	binding	–	–	Ki	0.46 nM
O=C(Cc1ccccc1Cl)Cn1cc(COC2=CC(=O)c3ccccc3C2=O)nn1	BCHE	inhibitor	–	–	Ki	8.04 nM
COC(=O)C1C2CCC(CC1c1ccc(Cl)c(Cl)c1)S2 (centres unmarked)	dopamine transporter	binding	–	–	Ki	5.7 nM
COc1ccc(/C=C/C(=O)OC(=O)/C=C/c2ccc(OC)cc2OC)c(OC)c1	ACHE	enzyme activity, inhibitor	–	–	Ki	8300 ± 940 nM
OC[C@@]12C[C@@H]1[C@@H](n1cnc3c(N[C@@H](C4CCC4)C4CC4)nc(Cl)nc31)[C@H](O)[C@@H]2O	ADORA2A (Homo sapiens, UniProt P29274)	binding	–	added: [3H]CGS21680	Ki	3940 ± 876 nM
CCCCCCCCO[C@H]1O[C@H](COS(=O)(=O)O)[C@@H](OS(=O)(=O)O)[C@H](OS(=O)(=O)O)[C@@H]1O[C@H]1O[C@H](COS(=O)(=O)O)[C@@H](OS(=O)(=O)O)[C@H](O[C@H]2O[C@H](COS(=O)(=O)O)[C@@H](OS(=O)(=O)O)[C@H](O[C@H]3O[C@H](COS(=O)(=O)O)[C@@H](OS(=O)(=O)O)[C@H](OS(=O)(=O)O)[C@@H]3OS(=O)(=O)O)[C@@H]2OS(=O)(=O)O)[C@@H]1OS(=O)(=O)O	heparanase	–	–	–	Ki	5.8 nM
O=C(Cn1cc(COc2ccc3ccc(=O)oc3c2)nn1)Nc1ccc(F)cc1	BCHE	–	–	–	Ki	33.1 nM
CC(C)[C@H](Nc1nc(Cl)nc2c1ncn2[C@H]1[C@H](O)[C@H](O)[C@]2(CO)C[C@H]12)C1CC1	HTR2C (Homo sapiens, UniProt P28335)	binding	–	added: [3H]mesulergine	Ki	672 nM
C[C@@H]1CN([C@@H](c2cccc(O)c2)c2cccc(C(=O)N(C)c3cccc(F)c3)c2)[C@@H](C)CN1Cc1ccccc1	rat delta opioid receptor	binding	–	–	Ki	0.4 nM
CCOC(=O)[C@@]12C[C@@H]1[C@@H](n1cnc3c(NC(C4CC4)C4CC4)nc(Cl)nc31)[C@H](O)[C@@H]2O	ADORA1 (Homo sapiens, UniProt P30542)	binding	–	added: [3H]R-PIA	Ki	360 ± 74 nM
CCCCCCCCCC(=O)CC(=O)NC1CCCCC1=O (centres unmarked)	lasR (Pseudomonas aeruginosa, UniProt P25084)	lasI-gfp(LVA) reporter, inhibitor	PAO-JP2	100 µM	inhibition	40%
COCCC(=O)N[C@H]1CC[C@H](CCN2CCN(c3cccc(Cl)c3Cl)CC2)CC1	dopamine D3 receptor	–	–	–	Ki	0.14 nM
COC(=O)C1C2CCC(CC1c1ccc(Cl)c(Cl)c1)O2 (centres unmarked)	dopamine transporter	binding	–	–	Ki	3.4 nM
C[C@H](NC(=O)CNC(=O)[C@@H]1CCCN1C(=O)[C@H](CO)NC(=O)CNC(=O)CN)C(=O)N[C@@H](CCCCN)C(=O)N[C@@H](CCCCN)C(=O)N[C@@H](CC(N)=O)C(=O)N[C@H](C(=O)N[C@@H](CCCCN)C(=O)N[C@@H](CO)C(=O)N[C@@H](C)C(=O)N[C@@H](CS)C(=O)NCC(=O)N[C@@H](CCCCN)C(=O)N[C@@H](C)C(=O)N[C@@H](CS)C(=O)N[C@@H](C)C(=O)N[C@@H](CS)C(=O)N[C@@H](Cc1c[nH]cn1)C(=O)O)[C@@H](C)O	Staphylococcus aureus	–	–	–	MIC	> 128 µM
CCC(=O)OC1C(=O)C2(C)C(O)CC3OCC3(OC(C)=O)C2C(OC(=O)c2cccc(OC(F)F)c2)C2(O)CC(OC(=O)C(O)C(C=C(C)C)NC(=O)OC(C)(C)C)C(C)=C1C2(C)C (centres unmarked)	MCF7	cytotoxicity	–	–	IC50	0.6 nM
CNC(=O)[C@@]12C[C@@H]1[C@@H](n1cnc3c(NC(C4CC4)C4CC4)nc(Cl)nc31)[C@H](O)[C@@H]2O	HTR2B (Homo sapiens, UniProt P41595)	binding	–	added: [3H]LSD	Ki	23 nM
CC[C@H](C)[C@H](NC(=O)CNC(=O)[C@H](CS)NC(=O)CNC(=O)[C@H](CO)NC(=O)[C@@H](NC(=O)[C@@H](NC(=O)[C@@H](NC(=O)[C@H](CC(N)=O)NC(=O)[C@@H](NC(=O)[C@H](CO)NC(=O)[C@H](CS)NC(=O)[C@H](C)NC(=O)[C@H](Cc1ccccc1)NC(=O)[C@H](CCCNC(=N)N)NC(=O)[C@H](CS)NC(=O)[C@H](CCCCN)NC(=O)[C@@H](NC(=O)CNC(=O)[C@@H](N)CO)[C@@H](C)CC)[C@@H](C)CC)[C@@H](C)O)[C@@H](C)O)[C@@H](C)CC)C(=O)N[C@@H](CO)C(=O)N[C@@H](CS)C(=O)N[C@@H](CCCCN)C(=O)N[C@@H](Cc1ccccc1)C(=O)O	Staphylococcus aureus	–	–	–	MIC	128 µM (≈ 320 µg/mL)
C=CCN1C[C@H](C)N([C@@H](c2ccccc2)c2ccc(C(=O)N(CC)CC)cc2)C[C@H]1C	rat delta opioid receptor	binding	–	–	Ki	0.5 nM
O=C(Cn1cc(COc2ccc3ccc(=O)oc3c2)nn1)Nc1ccccc1Cl	ACHE	enzyme activity, inhibitor	–	–	Ki	29.4 nM

A few entries again:
Structure (SMILES)	tested on	test	system	setting	measurement	result
C=CCN1C[C@H](C)N([C@@H](c2ccccc2)c2ccc(C(=O)N(CC)CC)cc2)C[C@H]1C	rat delta opioid receptor	binding	–	–	Ki	0.5 nM
CCCCCCCCCC(=O)CC(=O)NC1CCCCC1=O (centres unmarked)	lasR (Pseudomonas aeruginosa, UniProt P25084)	lasI-gfp(LVA) reporter, inhibitor	PAO-JP2	100 µM	inhibition	40%
